Published values from different studies.
Each line is one published result; not all experiments were run side by side. ± gives the spread as reported.
Cell line: U-87 MG

| Structure (SMILES) | test | setting | how to read | endpoint | value |
| --- | --- | --- | --- | --- | --- |
| CC1(C)C(/C=C/C2=C(Cl)C(=C/C=C3/N(CCCCCC(=O)O)c4ccccc4C3(C)C)/C[N+](C)(C)C2)=[N+](CCCCCC(=O)O)c2ccccc21 | organelle co-localization, confocal imaging | 20 µM, 24 h, mitochondria | – | Pearson's correlation coefficient | 0.56 |
| CCCCCCCCCCCCOc1c(O)cc(C(=O)OC2Cc3c(O)cc(O)cc3OC2c2cc(O)c(O)c(O)c2)cc1O (centres unmarked) | Western blot, item: phospho-mTOR | 50 µM, 24 h | baseline: untreated | phosphorylation level | decreased |
| CN(C)c1ccc(/C=C/C(=O)c2ccc(S(=O)(=O)N3CCCCCC3)cc2)cc1[N+](=O)[O-] | – | concentration not given, non-toxic concentrations | – | sphere formation | no inhibition |
| CCCCCCCCCCCCCCOc1c(O)cc(C(=O)O[C@@H]2Cc3c(O)cc(O)cc3O[C@@H]2c2cc(O)c(O)c(O)c2)cc1O | Western blot, item: phospho-AKT | 50 µM, 24 h | baseline: untreated | phosphorylation level | decreased |
| COc1c(Oc2c(O)c(OC)c(OC)c3c2ccc2cc(O)ccc23)cc2c(c1OC)-c1ccc(O)cc1CC2 | cell growth or viability, CCK-8 | 24 h | – | IC50 | 19.9 µM |
| CCCCCCCCOc1c(O)cc(C(=O)OC2Cc3c(O)cc(O)cc3OC2c2cc(O)c(O)c(O)c2)cc1O (centres unmarked) | cell viability, CCK-8 | 24 h | – | IC50 | 40.79 ± 0.13 µM |
| O=c1sn(Cc2ccccc2)c(=O)n1C1CC1 | cell viability | 72 h | – | IC50 | 7.2 ± 0.4 µM |
| COc1c(O)c(-c2c(O)c(OC)c(OC)c3c2ccc2cc(O)ccc23)c2c(c1OC)-c1ccc(O)cc1CC2 | cell growth or viability, CCK-8 | 24 h | – | IC50 | 17.1 µM |
| COc1ccc(-c2cc(=O)c3c(O)cc(O[C@@H]4O[C@H](CO)[C@@H](O)[C@H](O)[C@H]4O)cc3o2)cc1OC | cell growth or viability, resazurin | 72 h | – | IC50 | 33.5 µM |
| O=C(O[C@@H]1Cc2c(O)cc(O)cc2O[C@@H]1c1cc(O)c(O)c(O)c1)c1cc(O)c(O)c(O)c1 | cell viability, CCK-8 | 24 h | – | IC50 | 61.36 ± 0.05 µM |
| CC1OC(OCC2OC(Oc3cc(O)c4c(=O)cc(-c5ccc(O)c(O)c5)oc4c3)C(O)C(O)C2O)C(O)C(O)C1O (centres unmarked) | cell growth or viability, resazurin | 72 h | – | IC50 | 46.7 µM |
| CC(=O)O[C@H]1C(=O)[C@]2(C)[C@@H](OC(=O)[C@H](N)CSC3CC(=O)N(CCC(=O)Nc4ccc(-c5ccc(/N=N/c6ccc7c(S(=O)(=O)O)cc(S(=O)(=O)O)c(N)c7c6O)c(C)c5)cc4C)C3=O)C[C@H]3OC[C@@]3(OC(C)=O)[C@H]2[C@H](OC(=O)c2ccccc2)[C@]2(O)C[C@H](OC(=O)[C@H](O)[C@@H](NC(=O)c3ccccc3)c3ccccc3)C(C)=C1C2(C)C (some centres unmarked) | annexin V/PI flow cytometry | concentration not given, 24 h | – | early apoptotic cells | 36.8% |
| CC1(C)CC(=O)C(C2C([N+](=O)[O-])=C3NCCN3c3nc4ccccc4cc32)=C(O)C1 (centres unmarked) | cell growth or viability, MTT | 24 h | – | IC50 | 18.9 µM |
| Cc1ccc(C(C)C)cc1.[Cl-].[Cl][Ru+].[Ru+].c1ccc(-c2cn(CCCCOc3ccccc3-c3nc4ccccc4s3)nn2)nc1 | MTT | – | baseline: IC50 HEK293 over IC50 U-87 MG | selectivity ratio | 1.35 |
